# Measured values from different studies.
# Each numbered part is a random draw from the data of one study; scales do not carry over between parts. Substitutions count along the parent as printed.
# UniProt Q9Y2X8, sequence (whole entry, looked up): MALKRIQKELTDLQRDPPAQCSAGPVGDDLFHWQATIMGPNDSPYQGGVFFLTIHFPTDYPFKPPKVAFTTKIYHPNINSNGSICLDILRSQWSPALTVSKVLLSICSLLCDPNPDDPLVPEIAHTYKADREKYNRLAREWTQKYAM

# Series 1 — target: CCNB2, cyclin fold, Cln2 fusion (human); technique: yeast growth competition, sequencing; matrix: yeast; setting: weak parent motif; reference: not given; reading: higher = stronger binding; parent: viral docking peptide; PGASRRLFGSSAD
Variant,normalised enrichment score
PGASARLFGSSAD [R5A],0.312
PGASRRAFGSSAD [L7A],-0.118
PGASRRLFGSAAD [S11A],0.864
PGASRRLAGSSAD [F8A],0.213
PGASRRLFGSSAA [D13A],0.794
PGASKRLFGSSAD [R5K],0.365

# Series 2 — effect on: peptide-MHC binding; molecule type: peptide; tested at: concentration not given
# Target: HLA class I histocompatibility antigen, A alpha chain, allele A*25:01 (Homo sapiens, UniProt P04439)
Molecule,binding
LESLTDREL,inactive
YYFSYPLFV,inactive
DGAEGINPY,inactive
FQAGWEDPT,inactive

# Other studies, line by line
Substance,tested on,test,system,conditions,scale,measurement,result
"SEC61B (Homo sapiens, UniProt P60468)","LRRC59 (Homo sapiens, UniProt Q96AG4)",cross-linking MS,,hits only,,interaction screen,cross-linked
KITELNPHLMCVLCGGYFIDATTIIECLHSFCKTCIVRYLETSKYCPICDVQVHKTRPLL (BMI1 RING domain (UniProt P35226)),UBE2D4 UBC core domain (UniProt Q9Y2X8),yeast two-hybrid,yeast,mostly zero background,"reference: not given, higher = stronger interaction",lacZ reporter activity,0
"TRIM40 (Homo sapiens, UniProt Q6P9F5)","PHB2 (Homo sapiens, UniProt Q99623)",cross-linking MS,cell fractions,added: DMTMM,,cross-linked residues,K141 to E233
"NPLOC4 (Homo sapiens, UniProt Q8TAT6)","UFD1 (Homo sapiens, UniProt Q92890)",cross-linking MS,,hits only,,interaction screen,cross-linked
"SEPTIN7 (Homo sapiens, UniProt Q16181)","SEPTIN8 (Homo sapiens, UniProt Q92599)",cross-linking MS,cell fractions,added: DMTMM,,cross-linked residues,K97 to E13

# Some of these lines once more (series 1):
Variant,normalised enrichment score
PGASRRLAGSSAD [F8A],0.213
PGASRRLFGSSAA [D13A],0.794
